Results gathered from unrelated publications.
Parts stem from different laboratories: compare values within a part only.

Block 1 — method: RNA Bind-n-Seq; molecule type: RNA; medium: in vitro; concentration: 365 nM; reference: no-protein control; direction: higher = stronger binding; endpoint: RBNS enrichment (R)
Target: RNA binding protein fox-1 homolog 2, RRM domain, GST-SBP tag (RBFOX2, Homo sapiens, UniProt O43251-10, residues 100-194)
Notes: natural RNA segment, single round, ends assumed
Shared flanks, not repeated: GGGAGUUCUACAGUCCGACGAUC … UGGAAUUCUCGGGUGCCAA
Target sequence (chain): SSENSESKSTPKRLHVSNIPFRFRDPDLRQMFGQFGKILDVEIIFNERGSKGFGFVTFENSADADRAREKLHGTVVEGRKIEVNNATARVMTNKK
GGCUUAGGUUACCCUAGCUGGUUUUGUCCGUGUAAACAUUGAAAGUAUUAUAUUUUUAUAGAAAUGUUUAUUUUUAAUGAUGUAAGAAAAAUUUUCCUUAGGCCGCAGAA: 0.664
ACGCUGCUCAUGUCCCCUCUCCCUCCAUCUGAGAAGCAGAAGCGGCCAGUGUGCCUCAAGGCCCAGGAUGGAAGACUCUCAACUCAUUCUUGCCUUACUACAGUGAUGGU: 0.236
CAGGUGGGGUGGGGAGUGAUGGCUGUCCUCCUCUGUCGGCCUUUUAAUGACCGUUCUGUGUCCCAUGUAUGUCUCUGACCAUCCACAGCCGCCCCUCCUCCAUACCCCAG: 0.917
UGACCGCAACAUCCCGUGUGGGCGGCCGGCCGCUCCUGCAGCCCGACUCUCCUGCCAGUGUCUUUCAGGAUGUCAACGGGUGGUACGAUUCUGGCAUUUGUUUCUCGCUC: 0.285
UCCUUCCUACAGAAACUGUUUCUCCUCCUCCCCUCCAGCCUUCACACAAGGGCCUUGGCUUUGUUGAGACAGAGCCUGUGCUGGCACUUGCUGUUAGGGUAGGAAGAGGC: 0.3
UUAAUCUACAGCCACUCUCUACCUUGAGUCUAUCUAUGGUCAGUUGAAGAGUUUUAGAAGAAAUUCUCAUGGAAAUGCCCUAUCCCUGGACCUUCAGCCUCUUCUCUUCC: 0.428
CUGAAGUCUCUAUUUUCCAAGUUGUCCUUUCUCUUAAAAUACCCUUUACUGAUUUAAUACAGAAUAACAAUCUUAUUUUCCACUUGGUAACUAUGGCUUUAUGUUGGGUU: 0.417
UCUGUAGUUAACAGAACACUGUAAUGUGCCUUGGAGCUUAGUAACUUGUAAUAAAUUCAAUUGAUAUAACUGCGCUGAGUCAGCAAUUUUGUCUUUCUAGGGCUAAGGCC: 0.694

Block 2 — method: RNA Bind-n-Seq; molecule type: RNA; medium: in vitro; concentration: not given; notes: RNA with constant flanks, ends assumed; reference: input RNA pool; direction: higher = stronger binding; endpoint: bound/input enrichment
Target: RING finger protein unkempt homolog, zinc fingers 1-6, GST-SBP tag (UNK, Homo sapiens, UniProt Q9C0B0, residues 30-357)
Sequence of UniProt Q9C0B0 (30-357, looked up): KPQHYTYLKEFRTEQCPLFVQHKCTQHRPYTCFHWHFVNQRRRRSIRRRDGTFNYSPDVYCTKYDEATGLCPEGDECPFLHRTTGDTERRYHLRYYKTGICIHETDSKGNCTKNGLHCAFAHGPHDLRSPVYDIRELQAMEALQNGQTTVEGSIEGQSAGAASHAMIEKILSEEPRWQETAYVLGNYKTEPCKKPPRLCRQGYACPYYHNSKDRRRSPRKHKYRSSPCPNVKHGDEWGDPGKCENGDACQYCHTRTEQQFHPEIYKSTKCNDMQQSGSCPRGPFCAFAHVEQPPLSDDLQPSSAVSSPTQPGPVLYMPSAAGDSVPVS
Shared flanks, not repeated: GGGAGUUCUACAGUCCGACGAUC … CAACAGAGGAUUGAGCAUCA
GGCUGCUGAUUGUGUUCUAAGGGUCGGAGUGGGGUCGACGUUUGCUCUACCGGAACAGCUCCGCUCAUUCCUCCCUUUCCAUUACCUGUGGCGCGGAGAGUUGGGGCGGCGGCUGCGUCA: 0.242 ratio
CGCAGAACGGAUGAAGCUCUUACACCAAGUGUCACGAGUCUGGAGAACAGAUGGGUUGAGCCGUUGUUCUUAUAAAUUAGUAUCUGUGGAACACAAUCCUUUAUAUAUCAACAUCACAGU: 0.461 ratio
GUAAUCCUGGUUGCUUGGGAAGUUGAGAUAGGAUAACAAGUUCAAGGCCAGCCUGCACAACUCCGAACCUGUCUGGAAAUGAGAAAUAACUACCCUCACGAGGACUAUUAACAUAGGAUU: 0.414 ratio
AGGACUUCAUUCCUCCAUGUUUUCUUCCCUUAUCUUACUGUCAUUGUCCUUAAACCUUAUUUCCGAAAAUUGAUGAAGUAACAUGUUGCAUGUGGCUUACUCUGGCUAUAUCUAAGCCCG: 0.677 ratio
CCAGAUGACCGGUCACAGGGAGCAAUCAUUGCUGACCGGCCAGGGCUGCCUGGCCCAGAGCACCGCCCUUCAGAAUCCCAGCCUUCGUCGCCUUCUCCGACCCCAUCACCAUCCCCAGUC: 0.204 ratio
AAUGCAUCUCUUCAAGACCAUAUUUACCCGAGCUGUUUUGGGAACACUCCAGACUGGAACCGUUCUAAAUUUAUAAGUCUUUGGGAAUCAGAAAUGAUGAAUGAUAAGAACUGGAACCCU: 0.175 ratio
AACCUCCUUCCUACUGGUUUAGACUACACUUACAACAAGGAAAAUGCCCCUCGUGUGACCACCGAUUGAGAUUUAUACCACAUACCACACAUAGCCACAGAAACAUCAUCUUGAAAUAAA: 1.9 ratio
AGCAAUCCAGAUCUCUAUGGUCCCUUUUGGAUAUGUGCCACGUUGGUCUUUGCCACCGCAAUCCGUGGGAACCUUUCUAACUUCCUAAUCCAUCUGGGAGAGAAGACAUACCAUUAUGUG: 0.109 ratio

Block 3 — method: protein-binding microarray; molecule type: double-stranded DNA, one strand shown; medium: in vitro; concentration: 250 nM; notes: 60-bp whole probe; with: salmon DNA 0.4 mg/ml; reference: random background probes; direction: higher = stronger binding; endpoint: log fluorescence; shared flanks, not repeated: GCCTAGCAC … GTCTTGATTCGCTTGACGCTGCTG
Target: Interferon regulatory factor 7, full length, phosphomimetic (IRF7, Homo sapiens, UniProt Q92985, residues 1-503, S101K/S471D/S472D/S475D/S476D/S477D/S483D/S484D/S487D)
Sequence of UniProt Q92985 (whole entry, unmodified, looked up): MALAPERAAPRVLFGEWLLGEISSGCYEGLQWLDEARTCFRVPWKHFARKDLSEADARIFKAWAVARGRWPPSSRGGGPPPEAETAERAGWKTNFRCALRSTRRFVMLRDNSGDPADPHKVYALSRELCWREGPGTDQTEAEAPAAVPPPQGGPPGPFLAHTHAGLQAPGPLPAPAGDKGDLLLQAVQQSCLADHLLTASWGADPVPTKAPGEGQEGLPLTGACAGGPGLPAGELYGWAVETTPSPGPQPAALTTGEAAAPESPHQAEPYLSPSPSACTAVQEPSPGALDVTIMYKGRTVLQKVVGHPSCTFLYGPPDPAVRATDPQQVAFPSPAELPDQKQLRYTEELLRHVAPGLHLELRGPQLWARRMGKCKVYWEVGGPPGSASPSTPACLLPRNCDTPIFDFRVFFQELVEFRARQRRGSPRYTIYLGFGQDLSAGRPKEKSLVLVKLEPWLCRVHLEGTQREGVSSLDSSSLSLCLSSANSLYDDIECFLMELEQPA
TTAGAACTGGGGACTGGATTCGTGCTA: -0.281 z-score
GACGGTTTCCTTCTCCTGAAGTGCTAG: 2.98 z-score
TCATCTCTGTTTTTGCTACTGTGCTAG: 1.04 z-score
TCAAAAATCCCATTAAAACTGTGCTAG: 0.375 z-score
TTAGGTTACCTACTGCTTTAGTGCTAG: -0.134 z-score
TCAAGTCTGCAACATGGGACTGTGCTA: -0.524 z-score
GTCGGTCTCCTTATCCTGACGTGCTAG: 0.734 z-score
TTAGGTATCGGGTTTCGGTAAGTGCTA: 3.5 z-score
TCAAATCTGTGTTATTAAACTGTGCTA: 0.481 z-score
GTTCTTTTCTGTTGTCTGTGTGTGCTA: 1.85 z-score
GACCGTTTCCTTATCCTGACGTGCTAG: 2.82 z-score
AAATATATACAAACTAAGGATGTGCTA: -0.038 z-score
GACGGGTTCGACTTTCGGGACGTGCTA: 1.72 z-score
GATGAACTGAGACTGGAGACGTGCTAG: -0.279 z-score
TTAGGTTTCGGGACTGGCTTAGTGCTA: 3.79 z-score
GACGGACTGCTTATGCTGACGTGCTAG: -0.805 z-score
TTAGATCTCAGCTTCGATTAGTGCTAG: 0.384 z-score
TTAGATTTCAGTTCCGGTTAGTGCTAG: 2.64 z-score
TTAGTTCTCGGTATCGGTTAGTGCTAG: 2.78 z-score

Block 4 — method: protein binding microarray; molecule type: double-stranded DNA, one strand shown; medium: in vitro; concentration: not given; reference: not given; direction: higher = stronger binding; endpoint: E-score
Target: Histone acetyltransferase KAT6A, winged helix 2, GST fusion (KAT6A, Homo sapiens, UniProt Q92794, residues 85-181)
Notes: 8-mer, flanks averaged, mean of 2 arrays, mostly near background
Target sequence (chain): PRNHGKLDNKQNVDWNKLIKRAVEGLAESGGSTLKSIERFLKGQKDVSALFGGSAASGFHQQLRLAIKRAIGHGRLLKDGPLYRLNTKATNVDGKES
AGTGATTC: 0.0106
CTAAAACC: -0.079
GCGGTAAA: 0.104
ATAATCAC: -0.00954
CGACAACA: 0.0551
AACATAGT: -0.157
CCCACCCC: 0.00369
ACGTGGCT: -0.129
AATCTCAC: -0.0274
TATACCAA: -0.0614
TAAGAAAA: 0.127
ACGGTACA: -0.0648
CATTGCCG: -0.0396
CCGACAGA: 0.25
CGATCCAA: -0.0184
GGTTGGCA: 0.0354
AGCCGCGG: 0.23
GCTAAAGA: 0.155
GACCGGAA: -0.11
ACAGCTAT: -0.0967
ATATAAAC: 0.0536
ACCGATCT: -0.115

Repeated from above (block 1):
CUGAAGUCUCUAUUUUCCAAGUUGUCCUUUCUCUUAAAAUACCCUUUACUGAUUUAAUACAGAAUAACAAUCUUAUUUUCCACUUGGUAACUAUGGCUUUAUGUUGGGUU: 0.417
UCCUUCCUACAGAAACUGUUUCUCCUCCUCCCCUCCAGCCUUCACACAAGGGCCUUGGCUUUGUUGAGACAGAGCCUGUGCUGGCACUUGCUGUUAGGGUAGGAAGAGGC: 0.3
UCUGUAGUUAACAGAACACUGUAAUGUGCCUUGGAGCUUAGUAACUUGUAAUAAAUUCAAUUGAUAUAACUGCGCUGAGUCAGCAAUUUUGUCUUUCUAGGGCUAAGGCC: 0.694
ACGCUGCUCAUGUCCCCUCUCCCUCCAUCUGAGAAGCAGAAGCGGCCAGUGUGCCUCAAGGCCCAGGAUGGAAGACUCUCAACUCAUUCUUGCCUUACUACAGUGAUGGU: 0.236
GGCUUAGGUUACCCUAGCUGGUUUUGUCCGUGUAAACAUUGAAAGUAUUAUAUUUUUAUAGAAAUGUUUAUUUUUAAUGAUGUAAGAAAAAUUUUCCUUAGGCCGCAGAA: 0.664
UUAAUCUACAGCCACUCUCUACCUUGAGUCUAUCUAUGGUCAGUUGAAGAGUUUUAGAAGAAAUUCUCAUGGAAAUGCCCUAUCCCUGGACCUUCAGCCUCUUCUCUUCC: 0.428
